Measured values collected from several papers.
± marks the error that the study gave.

Cc1nc2cccc(OCC(C)(C)C(=O)NC(C)C)c2c(N)c1C(=O)O
AUC(0-24 h) (female Sprague-Dawley rat, plasma; oral food admix, 30 mg/kg/day, day 7, 90-day dietary study): 105 ng·h/mL

CC(C(=O)O)c1ccc(N2Cc3ccccc3C2=O)cc1 (stereo not shown)
remaining activity (Caspase-4 (CASP4, Homo sapiens, UniProt P49662); 33 µM, together with: LEHD substrate; baseline: solvent control): 4.23%

CCCC[C@H](NC(C)=O)C(=O)N[C@H]1CCC(=O)NC[C@@H](C(=O)N[C@@H](Cc2c[nH]c3ccccc23)C(N)=O)NC(=O)[C@H](CCCNC(=N)N)NC(=O)[C@@H](Cc2ccccc2)NC(=O)[C@H](Cc2c[nH]cn2)NC1=O
Cmax, geometric mean (healthy volunteers, both sexes, plasma; subcutaneous, 1.0 mg once daily, day 1): 21.7 ng/mL

c1cnc2c(c1)ccc1cccnc12
inhibitory concentration (subfragment degradation; chloroplast extract): 1 mM

CC(C)[C@H](NC(=O)[C@@H]1CCCN1C(=O)[C@H](CCCNC(=N)N)NC(=O)[C@H](CS)NC(=O)[C@H](Cc1c[nH]c2ccccc12)NC(=O)[C@H](CCCNC(=N)N)NC(=O)[C@@H](Cc1ccccc1)NC(=O)[C@H](Cc1c[nH]cn1)NC(=O)[C@H](CCC(=O)O)NC(=O)[C@H](CS)NC(=O)[C@H](CS)NC(=O)[C@H](CCCCN)NC(=O)[C@@H]1CC(=O)N[C@@H](CCCNC(=N)N)C(=O)N[C@@H](C)C(=O)N[C@@H](CC(=O)O)C(=O)N[C@H](Cc2ccc(O)cc2)C(=O)N1)C(N)=O [technetium-99m labelled]
tissue uptake (C57 mice, bone; intravenous, 0.037 MBq, 24 h): 0.11 ± 0.08 %ID/g

CC[S+]([O-])c1nc(-c2cccc(OCc3ccccc3)c2)cc(C(F)(F)F)n1 (stereo not shown)
Emax (GLP1R (Homo sapiens, UniProt P43220); cAMP accumulation, positive allosteric modulator; HEK293T overexpressing GLP1R; together with: GLP-1 EC20): 76 to 91%

CC[C@H](C)[C@@H]1NC(=O)[C@H]([C@@H](C)O)NC(=O)[C@H](Cc2ccc(O)cc2)NC(=O)[C@H](CCCNC(=N)N)NC(=O)[C@@H]2CCCN2C(=O)[C@H]2CCCN2C(=O)[C@H]([C@@H](C)O)NC(=O)[C@H](C(C)C)NC(=O)[C@H](C(C)C)NC(=O)[C@H](CCCCN)NC(=O)[C@H](CO)NC(=O)[C@H](CCC(N)=O)NC(=O)[C@H](CO)NC(=O)[C@H](Cc2ccc(O)cc2)NC(=O)[C@H](CO)NC(=O)[C@H](Cc2ccc(O)cc2)NC(=O)[C@@H]2CCCN2C(=O)[C@H](CO)NC(=O)[C@H](CC(C)C)NC(=O)[C@H](CC(C)C)NC(=O)[C@H](C)NC(=O)[C@H](C)NC1=O
half-time of degradation (Amyloid-beta precursor protein, Aβ40 (APP, Homo sapiens, UniProt P05067); proteolysis by proteinase K, item: amyloid beta; 1.4 µM, 24 h preincubation, 37 °C, together with: 20 µM amyloid beta, proteinase K 0.5 µg/mL): 18 min

CNC(=O)c1cc(Oc2ccc(NC(=O)Nc3ccc(Cl)c(C(F)(F)F)c3)cc2)ccn1
ATPase activity (ABCC2 (Homo sapiens, UniProt Q92887); stimulated ATPase activity, inhibitor; membrane vesicles; 0.14 to 300 µM, 10 min): inhibited

CCCOc1ccc(CC2c3cc(OC)c(OC)cc3CCN2CC(=O)NCc2ccccc2)cc1 (stereo not shown)
Kb (HCRTR1 (Homo sapiens, UniProt O43613); calcium signal, antagonist, fluorescence): 0.37 µM

CGIA
farnesylation rate constant (Protein farnesyltransferase (Rattus norvegicus, UniProt Q02293+Q04631); substrate, stopped-flow fluorescence; peptide; pH 7.8, 25 °C, single turnover): 0.75 ± 0.07 s⁻¹

Nc1ncnc2c1ncn2[C@@H]1O[C@H](COP(=O)(O)O)[C@@H](OP(=O)(O)O)[C@H]1O
Ki' (Protein-tyrosine sulfotransferase 2 (Homo sapiens, UniProt O60704); enzyme activity, product inhibitor; pH 7.5, 30 °C, noncompetitive versus peptide, together with: CCR8 peptide, PAPS 25 µM): 3.8 µM

ASTDTLQAETDQLEDEKYALQTEIANLLKEKEKLGAP
binding stoichiometry (Transcription factor Jun (Homo sapiens, UniProt P05412, S292Y); isothermal titration calorimetry; peptide; concentration not given, pH 7, 20 °C): 1.1 ± 0.01

Ac-YESTNPFTAK-NH2 (N-acetyl, C-amide)
ΔH (EHD1 EH domain, mouse; ITC; peptide; pH 7.0, 20 °C, 0 mM KCl, first titration): -11.8 kcal/mol

Ac-GRPCG-NH2 (N-acetyl, C-amide)
ID50 (Fibroblast growth factor 2, with pentraxin 3 (Homo sapiens, UniProt P09038); binding to PTX3, competitor, surface plasmon resonance; peptide; together with: 150 nM free FGF2): > 3000 µM

Nc1nc2c(ncn2[C@@H]2O[C@@H]3COP(=O)(O)O[C@H]3[C@H]2O)c(=O)[nH]1
relative maximal current (Cnga2 (Rattus norvegicus, UniProt Q00195); ion current, agonist, inside-out patch clamp; WT channel, +50 mV; baseline: cAMP at saturation): 1

CC(=O)N[C@@H](CCC(=O)O)C(=O)N[C@H](C(=O)N[C@@H](CC(C)C)C(=O)N[C@H](C(=O)N[C@@H](CCCNC(=N)N)C(=O)N1CCC[C@H]1C(=O)N[C@@H](CCCCN)C(=O)N1CCC[C@H]1C(=O)N[C@@H](CC(C)C)C(=O)N[C@@H](CC(C)C)C(=O)N[C@@H](CC(C)C)C(=O)N[C@@H](CCCCN)C(=O)N[C@@H](CC(C)C)C(=O)N[C@@H](CC(C)C)C(=O)N[C@@H](CCCCN)C(=O)N[C@@H](CO)C(=O)N[C@H](C(=O)NCC(=O)N[C@@H](C)C(=O)N[C@@H](Cc1ccc(O)cc1)C(N)=O)C(C)C)C(C)C)[C@@H](C)O
koff (Protein S100-B (Homo sapiens, UniProt P04271); binding, NMR line shape, NMR only; 35 °C, low salt): 100 ± 20 s⁻¹

For quick reference, copied from above:
CC[C@H](C)[C@@H]1NC(=O)[C@H]([C@@H](C)O)NC(=O)[C@H](Cc2ccc(O)cc2)NC(=O)[C@H](CCCNC(=N)N)NC(=O)[C@@H]2CCCN2C(=O)[C@H]2CCCN2C(=O)[C@H]([C@@H](C)O)NC(=O)[C@H](C(C)C)NC(=O)[C@H](C(C)C)NC(=O)[C@H](CCCCN)NC(=O)[C@H](CO)NC(=O)[C@H](CCC(N)=O)NC(=O)[C@H](CO)NC(=O)[C@H](Cc2ccc(O)cc2)NC(=O)[C@H](CO)NC(=O)[C@H](Cc2ccc(O)cc2)NC(=O)[C@@H]2CCCN2C(=O)[C@H](CO)NC(=O)[C@H](CC(C)C)NC(=O)[C@H](CC(C)C)NC(=O)[C@H](C)NC(=O)[C@H](C)NC1=O
half-time of degradation (Amyloid-beta precursor protein, Aβ40 (APP, Homo sapiens, UniProt P05067); proteolysis by proteinase K, item: amyloid beta; 1.4 µM, 24 h preincubation, 37 °C, together with: 20 µM amyloid beta, proteinase K 0.5 µg/mL): 18 min
